Assay results of several laboratories.
Each numbered part is a random draw from the data of one study; scales do not carry over between parts.

Set 1
Target: Histone acetyltransferase KAT6A, both winged helices, GST fusion (KAT6A, Homo sapiens, UniProt Q92794, residues 1-181)
Technique: protein binding microarray
Molecule type: double-stranded DNA, one strand shown
Matrix: in vitro
Tested at: not given
Notes: 8-mer, flanks averaged, mean of 2 arrays, mostly near background
Baseline: not given
Reading: higher = stronger binding
Construct (chain): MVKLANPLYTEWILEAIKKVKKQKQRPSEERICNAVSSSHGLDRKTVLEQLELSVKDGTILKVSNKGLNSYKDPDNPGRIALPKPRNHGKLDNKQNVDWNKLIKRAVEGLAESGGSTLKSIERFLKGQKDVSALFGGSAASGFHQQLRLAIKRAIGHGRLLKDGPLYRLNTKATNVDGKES
`ATACTCAC` gave an E-score of -0.0696.
`CCACTCGC` gave an E-score of 0.0179.
`CAGCGAAG` gave an E-score of -0.0564.
`TAAGCATA` gave an E-score of -0.0366.
`ATTGATAG` has an E-score of -0.0565.
The E-score of `CGCACTCA` is reported as 0.136.
`GGACACTA` gave an E-score of -0.133.
`AAGTTCGC` has an E-score of -0.0662.
`GCGAGACC` has an E-score of 0.0756.
`ATGTGAAT` has an E-score of -0.0166.
`AGGGGAAC` has an E-score of -0.217.
`CTTGGTGC` gave an E-score of -0.103.
The E-score of `AATCCCAG` is reported as -0.161.
`CCTATGGA` gave an E-score of -0.113.
`CGCTCTTC` has an E-score of 0.144.
With `TAAGTTAA` the E-score was -0.109.
`ATATCGTA` has an E-score of -0.133.
`AACTAACA` gave an E-score of 0.0125.
The E-score of `CAGGTGAA` is reported as -0.207.
`CATACGGC` has an E-score of 0.263.
For `CAGACCCC`, the E-score was -0.0507.
`AACCCCTA` gave an E-score of -0.236.
`CCTCGAAG` has an E-score of -0.13.

Set 2
Target: Fragile X messenger ribonucleoprotein 1, C-terminal low-complexity region (Fmr1, Mus musculus, UniProt P35922)
Technique: RNA Bind-n-Seq
Molecule type: RNA
Matrix: in vitro
Tested at: 200 nM
Notes: whole 134-nt RNA, ends assumed
With: 150 mM LiCl
Baseline: input library
Reading: higher = stronger binding
All molecules: 7-deaza-guanosine replaces G
For `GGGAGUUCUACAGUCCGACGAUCACCAUGCAGGUGGGCAUCUUUGGGAAGUGGGGCAAGGGGGGGAUAGGGAGGGGGGUAACACUUUGGGAACAGGUGGUCCCAGGUCGUUUGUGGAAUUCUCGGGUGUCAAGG`, the log2 enrichment was 1.53.
`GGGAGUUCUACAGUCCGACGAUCAAGUCCUGUGCUACACAUCGUAUGUACCGAAUCGGGGCCCGGGGCCCGGGGCCCGGGAAAGUAUUAUGUUACGCCGUUCGGAUCUGCACUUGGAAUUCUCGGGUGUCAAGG` has a log2 enrichment of -1.98.
The log2 enrichment of `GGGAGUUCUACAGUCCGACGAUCUGUUUAUCCAACAUAUGAUUUUGCCUGCCCCAUAGUUGACAGCAUCGAAGGUGUUACACAUGCCCUGAGAACAACAGAAUACCAUGACAGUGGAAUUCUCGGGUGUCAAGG` is reported as 0.0825.
The log2 enrichment of `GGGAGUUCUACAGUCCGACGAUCAGUCCUGUGCUACACAUCGUAUGUACCGAAUCGGUUUUUGGUUUUUUUGGUUUUUGGAAAGUAUUAUGUUACGCCGUUCGGAUCUGCACUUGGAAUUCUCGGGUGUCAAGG` is reported as -2.05.
`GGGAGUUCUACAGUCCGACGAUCCCUCAAGUCCUGUGCUACACAUCGUAUGUACCGAAUCGGAAGGGGAAGGAAGGAAAGUAUUAUGUUACGCCGUUCGGAUCUGCACUUCCAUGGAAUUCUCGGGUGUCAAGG` gave a log2 enrichment of -1.58.
With `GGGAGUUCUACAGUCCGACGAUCCAAGUCCUGUGCUACACAUCGUAUGUACCGAAUCGGAAAAAAAGGUUUGGUUUGGAAAGUAUUAUGUUACGCCGUUCGGAUCUGCACUUCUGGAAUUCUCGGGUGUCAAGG` the log2 enrichment was -2.43.
For `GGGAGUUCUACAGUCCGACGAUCGAGCUGGAAGCUAUCAAAGCUCGAGUCAGGGAGAUGGAGGAAGAAGCUGAGAAGCUAAAGGAGCUACAGAACGAGGUAGAGAAGCAGAUGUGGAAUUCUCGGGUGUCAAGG`, the log2 enrichment was -0.205.
`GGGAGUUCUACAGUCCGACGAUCCAAGUCCUGUGCUACACAUCGUAUGUACCGAAUCGGAAAAAGGUUUUUUUGGAGGAAAGUAUUAUGUUACGCCGUUCGGAUCUGCACUUCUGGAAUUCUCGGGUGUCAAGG` gave a log2 enrichment of -1.9.

Set 3
Target: RNA binding protein fox-1 homolog 2, RRM domain, GST-SBP tag (RBFOX2, Homo sapiens, UniProt O43251-10, residues 100-194)
Technique: RNA Bind-n-Seq
Molecule type: RNA
Matrix: in vitro
Tested at: 365 nM
Notes: natural RNA segment, single round, ends assumed
Baseline: no-protein control
Reading: higher = stronger binding
Construct (chain): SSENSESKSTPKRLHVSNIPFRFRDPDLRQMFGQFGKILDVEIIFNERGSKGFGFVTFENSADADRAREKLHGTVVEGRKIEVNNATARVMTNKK
Under “RBNS enrichment (R)”, `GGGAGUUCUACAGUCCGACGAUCUCAGUGGUCAUUCUUCUGCCUUCCAAAAUCUUAGUUUUAUAAAAGCAUUGUGUAUGACAGAGUGGCCUUGAAGAGACUGAAUAAUCAUUUUAUAAUAAUGUUGAAGGAAAUGGAAUUCUCGGGUGCCAA` is recorded as 1.32.
For `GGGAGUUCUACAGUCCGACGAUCCGGGAACCAGACCUCUCACCGGAAAGACCGAUUAACCAUGUCACCACCACGCCAUCAUCGUCACCGUUGACAGAACAGUCCUUAAUCCAGAAAGCCUGACAUGAAGGAAGUGGAAUUCUCGGGUGCCAA`, “RBNS enrichment (R)” read 0.319.
For `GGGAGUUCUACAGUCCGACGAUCCCUCUGAAAGAGAAGGAGUGCAGGAGAGUAAGUCUCUCAAGGACGUUCAACAAAGGACCAGCAGCAUCUUAUCAGGCGAUCCUCAGAGGCUCCAAGGAGCAUUGGAGAGAUGGAAUUCUCGGGUGCCAA`, “RBNS enrichment (R)” read 0.518.
For `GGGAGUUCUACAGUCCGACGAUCCCUGCUUUUUAGGCCUGGAUAACAGUAUCACCAUCCUUAUUUACAGAAGGGUAAAACUGACUCUUAAUGAGAAAAGCUUUAUAAGUUCAAGGGCUGUAAAAUAUGAACUAUGGAAUUCUCGGGUGCCAA`, “RBNS enrichment (R)” read 0.306.
`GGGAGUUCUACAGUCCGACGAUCGCUUUUUAAUUUACAAUGAAACAAAGAAACAAAUUCCUUUGACCAAAUUGCUUGUCUAUAGUUGUCUGCAGUACUGUAUGAUUUUACCCAUGUGCAAUUUGUAAAAUGAAUGGAAUUCUCGGGUGCCAA` — result for “RBNS enrichment (R)”: 1.16.
`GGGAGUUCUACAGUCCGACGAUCCCUUAAAUACUUGUUAUUGACUGGGGUUAUUUUUAUGCUGUAGCAAAUGUGACAGGCUCUUUUUAGCAAAAUUUUUGAAAAUUUUUUUGGUAUUACUCUGAAACAAAAUUUGGAAUUCUCGGGUGCCAA` — result for “RBNS enrichment (R)”: 0.925.
For `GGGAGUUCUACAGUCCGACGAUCAGAGCUGAGCAUUGUCUCAUCCAGAGCUAAGGACAUGAGUCCUCUAUUUCAAGUAGGGAAACCCAGGUGGACUUUGCUCAAGAUGGUUCCCAAAAUGAGAGGCACCAACUUGGAAUUCUCGGGUGCCAA`, “RBNS enrichment (R)” read 0.271.
`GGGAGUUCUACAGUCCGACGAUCUAAAUACUGUACAUGGUGGGGAAUGGAAUGCCUGUUGGAGAAGCUUCUAGCCAAUCACGCUCUGGACCAGCAUGUUGGAAUCCAGUGUGGGGCAAAUGCAGUAAAGAUUUUGGAAUUCUCGGGUGCCAA` — result for “RBNS enrichment (R)”: 38.6.
`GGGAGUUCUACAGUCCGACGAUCGUGGCUCACAACCAUCUGUAAUGGGAUCUGAUGCCCUCUUCUAGUGUGUCUGAAGACAGUGACAGUGUACUCAUAUACAUAAAGAAAUCUUUUUUUAAAAAAGAGAGAAAUGGAAUUCUCGGGUGCCAA` — result for “RBNS enrichment (R)”: 0.334.

Set 4
Target: RING finger protein unkempt homolog, zinc fingers 1-6, GST-SBP tag (UNK, Homo sapiens, UniProt Q9C0B0, residues 30-357)
Chain of UniProt Q9C0B0 (30-357, looked up): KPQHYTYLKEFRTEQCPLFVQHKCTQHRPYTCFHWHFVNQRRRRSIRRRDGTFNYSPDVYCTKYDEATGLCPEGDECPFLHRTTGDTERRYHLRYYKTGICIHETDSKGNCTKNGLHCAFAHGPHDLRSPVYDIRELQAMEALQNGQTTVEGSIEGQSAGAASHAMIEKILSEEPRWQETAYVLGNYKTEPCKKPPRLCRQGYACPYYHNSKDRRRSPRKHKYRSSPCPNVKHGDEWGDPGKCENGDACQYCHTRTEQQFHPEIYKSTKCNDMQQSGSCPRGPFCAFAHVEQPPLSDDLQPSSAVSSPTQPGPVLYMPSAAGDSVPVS
Technique: RNA Bind-n-Seq
Molecule type: RNA
Matrix: in vitro
Tested at: not given
Notes: RNA with constant flanks, human and mouse sites, ends assumed
Baseline: input RNA pool
Reading: higher = stronger binding
For `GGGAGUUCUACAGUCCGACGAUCGAACUAUGACAUCGGAGCGGCUCUGGACACCAUCCAGUAUUCAAAGCAUCCCCCGCCGUUGUGACCACUUUUGCCCACCUCUUCUGCGUGCCCCUCUUCUGUCUCAUAGUUGUGUUAAGCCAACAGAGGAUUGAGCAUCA`, the bound/input enrichment was 0.5 ratio.
The bound/input enrichment of `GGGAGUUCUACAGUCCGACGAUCACUCAGAGAUCCACCUCCCAAAGUGCUGGGAGUAAAGGUGUGGCCACCACACCUAACUUGAUGGAUAUAUAUUUUUUUUAAUAUGAAUCUUCCUGUUCGUCCAGGGAAGAAAGAUUUGUUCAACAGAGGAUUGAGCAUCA` is reported as 1.37 ratio.
For `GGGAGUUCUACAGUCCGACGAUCCUUCUCAUGACCAACUGUAUCAAGAAUGAUCUUAAUCAUAGCACGCAGUUUGUGCAGGGGCUAGCACUUUGUACCCUCGGCUGCAUGGGCUCCUCGGAGAUGUGCAGAGAUCUUGCGGGACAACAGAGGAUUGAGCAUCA`, the bound/input enrichment was 0.242 ratio.
With `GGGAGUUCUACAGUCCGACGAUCAAAGAGGAUAUUGGUAUUGGUUCUUAUUCUGUUUGCAAGCGAUGCAUACACUCAGCUUCCAAUGUGGAAUUUGCAGUCAAGAUCAUUGAUAAAAAUAAGAGAGACCCCUCAGAAGAAAUUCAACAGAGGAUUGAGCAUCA` the bound/input enrichment was 0.137 ratio.
With `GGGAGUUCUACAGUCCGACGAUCUAUAAAUUUGUAAAUCUUAAUUCAAAGAUAACUUUUGUGUGGGUAUUGAGUUUGGAUCGGUUUUUUGUCUUGGUGUGGGCUGUGUGGCUUUUGGGAGGGGAUGUGUGUGAGAGAGGUGAGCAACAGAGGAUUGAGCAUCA` the bound/input enrichment was 1.12 ratio.
`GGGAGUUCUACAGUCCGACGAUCAUGGACUUACAGCUUCAUAUUUAUCAGUUGAAAACACUAAUUAGGAUGGUAAAGAAAACCUACAGAGAUUUCCGAUUGCAAGGGGUCCUGGACUCCACCUUAAACAGCAAGACCUAUGAACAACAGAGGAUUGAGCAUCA` has a bound/input enrichment of 0.6 ratio.
For `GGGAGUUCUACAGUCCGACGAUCAGAAAACAGAUAAAUAAUAUAUUUUAUAGGUUUAUUUAUGAAACAGAGCAUCAUAAUGGCAUAGCAGAGUUACUGGAAAUAUUGGGAAGUAUAAUUAAUGGAUUUGCCUUACCACUAAAACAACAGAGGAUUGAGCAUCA`, the bound/input enrichment was 1.15 ratio.
With `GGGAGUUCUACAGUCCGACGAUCAUUUAUCUGUAUGAAAUUCCAGUAGUUAAUUUGAACAUUUAUUUAUAUGACGUUUGUAUUUUUAGGUCUUUAAUACAGUGUUUCUACCUCUCAUUUGUAACUGCAUGCAUUAUUCUUGAACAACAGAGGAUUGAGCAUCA` the bound/input enrichment was 14.2 ratio.
The bound/input enrichment of `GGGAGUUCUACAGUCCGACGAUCAUAUCUUUUGUUUUGGCUUGGUUUGAAGAAGGUGAAGAAACAAUUACAGCCUUUGUAGAACCUUUUGUAAUUUUACUCAUAUUAGUAGCCAAUGCAAUUGUGGGUGUAUGGCAGGAAAGACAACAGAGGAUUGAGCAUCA` is reported as 0.644 ratio.
With `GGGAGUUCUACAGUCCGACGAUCGGUUUAAACUUUUAAUUCUGUAUUUCAUGAUUAUAAGUCUUGCUAGAAUUUUUUCUAAUCUUUAGUAGAUUUGAUUAAAUAAUGAUUCACAGAAUUUAGUAACAGAAUCAAACUAAGCCACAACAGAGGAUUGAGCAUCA` the bound/input enrichment was 0.837 ratio.
`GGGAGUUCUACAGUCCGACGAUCCAUGACAAAGCUUCAAAGGAUGCCAAAUAUGAACUGGUAAAAGCACUUGCCAAUUCCAAGACAGUUGCAGAGAUCUUUGGGAACUCAAAUUAUUUGAGGCUCAGAGCGUACCUAAGUGAACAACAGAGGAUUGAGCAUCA` gave a bound/input enrichment of 0.107 ratio.

Repeated from above (set 2):
For `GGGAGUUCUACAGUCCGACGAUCACCAUGCAGGUGGGCAUCUUUGGGAAGUGGGGCAAGGGGGGGAUAGGGAGGGGGGUAACACUUUGGGAACAGGUGGUCCCAGGUCGUUUGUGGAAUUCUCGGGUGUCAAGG`, the log2 enrichment was 1.53.
The log2 enrichment of `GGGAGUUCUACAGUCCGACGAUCAGUCCUGUGCUACACAUCGUAUGUACCGAAUCGGUUUUUGGUUUUUUUGGUUUUUGGAAAGUAUUAUGUUACGCCGUUCGGAUCUGCACUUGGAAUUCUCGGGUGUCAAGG` is reported as -2.05.
`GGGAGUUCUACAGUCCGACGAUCCAAGUCCUGUGCUACACAUCGUAUGUACCGAAUCGGAAAAAGGUUUUUUUGGAGGAAAGUAUUAUGUUACGCCGUUCGGAUCUGCACUUCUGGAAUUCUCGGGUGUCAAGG` gave a log2 enrichment of -1.9.
